Assay results pooled from the literature.
Protocols differ between the studies behind these lines. “And” joins repeats or separate records; there may be more than shown. ± gives the spread as reported.
MAPK8: Mitogen-activated protein kinase 8 (MAPK8, Homo sapiens, UniProt P45983)
Chain of UniProt Q16539 (whole entry, looked up): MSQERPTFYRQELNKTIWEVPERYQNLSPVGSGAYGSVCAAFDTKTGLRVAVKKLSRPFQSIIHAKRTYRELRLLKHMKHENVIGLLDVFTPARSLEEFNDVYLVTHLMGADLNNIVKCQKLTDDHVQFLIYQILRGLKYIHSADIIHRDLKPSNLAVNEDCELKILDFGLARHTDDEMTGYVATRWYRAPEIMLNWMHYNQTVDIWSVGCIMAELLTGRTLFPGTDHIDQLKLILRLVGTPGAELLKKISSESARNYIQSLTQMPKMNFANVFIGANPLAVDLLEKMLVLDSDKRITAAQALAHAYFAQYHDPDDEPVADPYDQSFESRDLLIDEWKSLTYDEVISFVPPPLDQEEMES
Chain of UniProt P45983 (whole entry, looked up): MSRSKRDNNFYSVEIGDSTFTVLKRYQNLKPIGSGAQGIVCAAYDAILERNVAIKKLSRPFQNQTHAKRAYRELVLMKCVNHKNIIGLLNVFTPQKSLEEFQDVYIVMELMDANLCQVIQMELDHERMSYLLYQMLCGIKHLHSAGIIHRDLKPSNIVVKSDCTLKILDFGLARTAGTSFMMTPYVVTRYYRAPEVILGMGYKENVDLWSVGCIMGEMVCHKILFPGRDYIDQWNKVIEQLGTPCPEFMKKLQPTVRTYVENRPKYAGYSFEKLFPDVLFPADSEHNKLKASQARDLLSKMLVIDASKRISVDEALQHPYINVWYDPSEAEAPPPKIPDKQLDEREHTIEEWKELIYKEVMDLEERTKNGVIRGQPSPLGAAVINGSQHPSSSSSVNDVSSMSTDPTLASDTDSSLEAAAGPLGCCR
Chain of UniProt Q8IZX4 (whole entry, looked up): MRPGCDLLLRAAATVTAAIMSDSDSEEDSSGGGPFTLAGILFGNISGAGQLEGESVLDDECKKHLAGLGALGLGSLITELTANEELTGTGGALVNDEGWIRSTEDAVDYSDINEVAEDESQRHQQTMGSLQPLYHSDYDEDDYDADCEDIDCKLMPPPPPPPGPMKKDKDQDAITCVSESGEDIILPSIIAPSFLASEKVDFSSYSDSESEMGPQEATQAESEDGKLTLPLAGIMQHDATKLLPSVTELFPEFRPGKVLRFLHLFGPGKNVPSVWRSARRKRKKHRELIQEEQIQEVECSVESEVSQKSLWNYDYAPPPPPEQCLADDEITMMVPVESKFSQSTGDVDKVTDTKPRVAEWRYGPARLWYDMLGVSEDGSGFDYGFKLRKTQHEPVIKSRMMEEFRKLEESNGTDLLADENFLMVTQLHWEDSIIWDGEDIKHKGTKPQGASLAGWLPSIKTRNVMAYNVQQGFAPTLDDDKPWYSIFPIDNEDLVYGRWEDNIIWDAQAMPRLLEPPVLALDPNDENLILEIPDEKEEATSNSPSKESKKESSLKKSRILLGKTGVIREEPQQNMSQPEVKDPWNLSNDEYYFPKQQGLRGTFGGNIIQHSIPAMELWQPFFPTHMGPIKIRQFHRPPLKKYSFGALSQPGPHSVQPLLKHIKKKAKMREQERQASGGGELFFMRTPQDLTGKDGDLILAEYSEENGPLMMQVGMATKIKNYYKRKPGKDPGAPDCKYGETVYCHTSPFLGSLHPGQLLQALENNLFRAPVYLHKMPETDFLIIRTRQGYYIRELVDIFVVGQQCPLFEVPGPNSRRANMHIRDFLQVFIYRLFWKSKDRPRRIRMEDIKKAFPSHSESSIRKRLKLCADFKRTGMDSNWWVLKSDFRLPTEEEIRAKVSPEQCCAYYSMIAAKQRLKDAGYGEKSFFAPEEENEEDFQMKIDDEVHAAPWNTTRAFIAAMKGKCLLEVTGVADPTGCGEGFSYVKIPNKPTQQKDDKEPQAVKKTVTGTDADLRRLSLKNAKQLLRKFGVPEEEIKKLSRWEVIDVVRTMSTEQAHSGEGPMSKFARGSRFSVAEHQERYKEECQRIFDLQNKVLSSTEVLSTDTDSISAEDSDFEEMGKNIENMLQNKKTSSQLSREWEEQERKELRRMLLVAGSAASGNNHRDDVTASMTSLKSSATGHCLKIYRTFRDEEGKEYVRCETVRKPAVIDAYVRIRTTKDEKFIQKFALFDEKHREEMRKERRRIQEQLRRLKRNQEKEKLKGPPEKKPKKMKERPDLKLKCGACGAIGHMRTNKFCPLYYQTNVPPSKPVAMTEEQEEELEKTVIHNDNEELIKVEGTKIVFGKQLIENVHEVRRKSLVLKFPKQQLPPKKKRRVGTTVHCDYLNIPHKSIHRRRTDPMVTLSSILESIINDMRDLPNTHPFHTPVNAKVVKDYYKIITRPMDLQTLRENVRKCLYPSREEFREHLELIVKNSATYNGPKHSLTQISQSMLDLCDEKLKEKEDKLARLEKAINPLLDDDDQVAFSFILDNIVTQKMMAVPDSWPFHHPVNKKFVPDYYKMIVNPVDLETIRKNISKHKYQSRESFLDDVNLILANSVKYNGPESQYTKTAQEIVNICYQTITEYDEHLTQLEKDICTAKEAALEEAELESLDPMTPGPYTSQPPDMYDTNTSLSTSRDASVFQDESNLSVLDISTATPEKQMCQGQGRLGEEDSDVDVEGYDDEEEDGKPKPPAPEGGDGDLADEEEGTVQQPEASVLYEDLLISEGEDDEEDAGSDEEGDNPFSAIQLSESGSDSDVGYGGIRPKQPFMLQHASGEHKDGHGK
Chain of UniProt P25440 (whole entry, looked up): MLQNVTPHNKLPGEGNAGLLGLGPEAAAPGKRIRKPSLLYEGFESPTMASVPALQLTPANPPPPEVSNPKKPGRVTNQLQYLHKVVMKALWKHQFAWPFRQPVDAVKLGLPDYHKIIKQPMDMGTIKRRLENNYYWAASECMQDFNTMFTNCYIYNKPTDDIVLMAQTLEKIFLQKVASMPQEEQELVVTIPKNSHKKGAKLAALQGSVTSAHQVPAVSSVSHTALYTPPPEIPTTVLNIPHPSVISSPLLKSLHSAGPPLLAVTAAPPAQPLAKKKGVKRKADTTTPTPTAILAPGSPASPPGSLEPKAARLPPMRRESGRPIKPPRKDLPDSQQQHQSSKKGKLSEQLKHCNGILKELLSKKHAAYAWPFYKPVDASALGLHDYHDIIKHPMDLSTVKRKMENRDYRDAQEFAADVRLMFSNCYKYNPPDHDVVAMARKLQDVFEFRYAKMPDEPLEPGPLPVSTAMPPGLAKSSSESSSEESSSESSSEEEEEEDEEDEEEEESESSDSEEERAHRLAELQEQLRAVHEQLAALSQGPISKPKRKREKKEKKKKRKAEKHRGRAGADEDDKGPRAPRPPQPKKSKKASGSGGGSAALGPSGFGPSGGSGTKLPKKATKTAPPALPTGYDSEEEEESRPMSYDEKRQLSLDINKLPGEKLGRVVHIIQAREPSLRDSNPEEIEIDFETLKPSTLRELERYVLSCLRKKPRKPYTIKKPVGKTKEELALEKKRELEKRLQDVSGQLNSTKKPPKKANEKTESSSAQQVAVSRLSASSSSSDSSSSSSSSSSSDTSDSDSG
Chain of UniProt Q6V1X1 (whole entry, looked up): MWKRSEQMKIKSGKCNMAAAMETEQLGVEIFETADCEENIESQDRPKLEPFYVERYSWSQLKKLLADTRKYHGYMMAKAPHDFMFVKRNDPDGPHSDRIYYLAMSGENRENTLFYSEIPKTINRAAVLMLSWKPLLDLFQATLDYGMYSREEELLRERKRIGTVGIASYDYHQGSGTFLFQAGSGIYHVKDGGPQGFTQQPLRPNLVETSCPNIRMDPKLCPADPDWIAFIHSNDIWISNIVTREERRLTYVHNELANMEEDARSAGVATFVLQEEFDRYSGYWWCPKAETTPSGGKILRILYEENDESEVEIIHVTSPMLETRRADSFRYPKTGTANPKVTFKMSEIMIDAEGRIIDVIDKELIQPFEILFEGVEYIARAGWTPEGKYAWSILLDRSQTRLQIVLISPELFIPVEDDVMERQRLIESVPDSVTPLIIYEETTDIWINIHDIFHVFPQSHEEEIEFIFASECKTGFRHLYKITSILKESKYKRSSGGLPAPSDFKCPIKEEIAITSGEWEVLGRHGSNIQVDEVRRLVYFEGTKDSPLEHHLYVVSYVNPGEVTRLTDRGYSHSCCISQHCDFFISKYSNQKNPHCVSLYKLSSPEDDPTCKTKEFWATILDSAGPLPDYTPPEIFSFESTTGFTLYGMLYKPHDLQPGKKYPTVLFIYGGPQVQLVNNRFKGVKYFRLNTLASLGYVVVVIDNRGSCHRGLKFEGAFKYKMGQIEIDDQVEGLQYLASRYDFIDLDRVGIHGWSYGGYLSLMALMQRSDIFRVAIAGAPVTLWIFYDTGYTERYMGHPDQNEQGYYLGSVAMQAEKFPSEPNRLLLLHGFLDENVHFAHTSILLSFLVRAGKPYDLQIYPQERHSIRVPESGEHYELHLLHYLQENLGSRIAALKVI
Chain of UniProt Q99986 (whole entry, looked up): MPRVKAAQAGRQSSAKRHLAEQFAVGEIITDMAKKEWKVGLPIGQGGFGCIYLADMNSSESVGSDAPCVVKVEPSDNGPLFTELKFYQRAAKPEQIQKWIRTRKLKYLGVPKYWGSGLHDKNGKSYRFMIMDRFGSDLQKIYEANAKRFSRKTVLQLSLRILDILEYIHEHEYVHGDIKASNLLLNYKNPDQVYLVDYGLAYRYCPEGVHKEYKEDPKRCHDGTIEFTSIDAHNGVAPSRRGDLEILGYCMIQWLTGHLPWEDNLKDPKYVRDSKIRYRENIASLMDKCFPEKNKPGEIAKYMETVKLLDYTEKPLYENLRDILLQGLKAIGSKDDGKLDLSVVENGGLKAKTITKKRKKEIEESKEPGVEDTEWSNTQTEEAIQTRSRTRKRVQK
Chain of UniProt Q15369 (whole entry, looked up): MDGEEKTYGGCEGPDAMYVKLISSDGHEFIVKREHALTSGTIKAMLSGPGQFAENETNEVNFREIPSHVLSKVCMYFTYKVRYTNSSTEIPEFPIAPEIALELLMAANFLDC

C[C@@H]1C[C@H](Nc2ccccc2)c2cc(F)ccc2N1C(=O)c1ccc(N)cc1
pIC50 Z-score (Ecdysone receptor (Aedes albopictus, UniProt Q9U3Y4); ligand binding, inhibitor; intact cells; with: [3H]ponasterone A; direction not given): -1

CNC(=O)C[C@H](Cc1ccc(C#N)cc1)NC(=O)c1cc(-c2ccc(CN[C@H](C)c3ccc(C)cc3)o2)ccc1Cl
activity vs control (Serine/threonine-protein kinase VRK1 (VRK1, Homo sapiens, UniProt Q99986); enzyme activity, inhibitor; 1 µM): 97%

N=C(N)NCCC[C@@H]1NC(=O)[C@H](Cc2ccccc2)NC(=O)CSC[C@@H](C(=O)N[C@@H](CC(=O)O)C(N)=O)NC(=O)[C@H](CCCNC(=N)N)NC(=O)[C@H](Cc2c[nH]c3ccccc23)NC(=O)[C@H](Cc2ccc(O)cc2)NC(=O)[C@H](Cc2ccc(O)cc2)NC(=O)[C@H](Cc2ccccc2)NC1=O
ΔTm (Stimulator of interferon genes protein (STING1, Homo sapiens, UniProt Q86WV6, H232R); thermal stability, DSF; 50 µM): 8.36 °C

COc1ccccc1-c1ccncc1C(=O)Nc1nnc(OCc2ccc(Cl)cc2)s1
remaining activity (DNA polymerase theta, helicase domain (POLQ, Homo sapiens, UniProt O75417); ATPase activity, ADP-Glo; 0.002 µM, with: ATP 100 µM): 85%

Cn1cc(-c2cc(N3CCCCS3(=O)=O)ccc2N[C@H]2CC[C@H](C)CC2)c2cc[nH]c2c1=O (stereo in doubt)
remaining binding (Transcription initiation factor TFIID subunit 1-like, BD2 (TAF1L, Homo sapiens, UniProt Q8IZX4); binding, competition with immobilised ligand; 1 µM): 100%

CC1(Cc2ccccc2)C(=O)N(c2cccc(CN3CCN(Cc4ccc(Br)cc4)CC3)c2)C1=O.O=C(O)C(F)(F)F
selectivity ratio (Dipeptidyl peptidase 8 (Homo sapiens, UniProt Q6V1X1); inhibitor; with: GP-AMC substrate; reference: Ki' DPP9 over Ki' DPP8): 9

Cc1cn(CC(=O)N(CCNC(=O)CN(CCNC(=O)CN(CCNC(=O)CN(CCNC(=O)CN(CCNC(=O)CN(CCNC(=O)CN(CCNC(=O)CN(CCN)C(=O)Cn2cnc3c(=O)[nH]c(N)nc32)C(=O)Cn2cnc3c(N)ncnc32)C(=O)Cn2cc(C)c(=O)[nH]c2=O)C(=O)Cn2cnc3c(=O)[nH]c(N)nc32)C(=O)Cn2cc(C)c(=O)[nH]c2=O)C(=O)Cn2cnc3c(=O)[nH]c(N)nc32)C(=O)Cn2cnc3c(N)ncnc32)CC(=O)NCCN(CC(=O)NCCOCCOCC(N)=O)C(=O)Cn2cnc3c(N)ncnc32)c(=O)[nH]c1=O
ΔG (complementary RNA; duplex formation, UV melting curve fit; PBS; 1 µM, 298 K): -12.4 ± 0.1 kcal/mol

C#CCOC(=O)[C@@]1(C)C=C(C(=O)OC(C)(C)C)C(=O)CC1
normalized kinase activity (MAPK8; enzyme activity, D-SENSOR; 0.06097 µM, mean of replicates): 0.984

C=CC(=O)N1CCCC(n2c(=O)c3ncccc3n(Cc3ccc(Oc4ccccc4)cc3)c2=O)C1 (centres unmarked)
melting temperature shift (Elongin-C (Homo sapiens, UniProt Q15369); thermal proteome profiling, measured: ELOC; 10 µM, destabilized proteins, unit not given; reference: vehicle): -6.35

COC(=O)[C@]1(Cc2ccccc2)C=C(C(=O)OC(C)(C)C)C(=O)CC1
fraction bound (MAPK8; D-peptide binding, inhibitor, FP peptide displacement; 500 µM; lower is stronger displacement): -0.0933

CC(/C=C/C(=O)NO)=C\[C@@H](C)C(=O)c1ccc(N(C)C)cc1
TΔS° (Histone deacetylase 8 (HDAC8, Homo sapiens, UniProt Q9BY41); ITC; Tris-HCl buffer; 293 K): 0.6 kcal/mol

CC(=O)N1c2ccc(-c3ccc(CNC(=O)c4cn5cc(-c6cnc(N)nc6)nc(N6CCOCC6)c5n4)cc3)cc2CC[C@@H]1C
remaining binding (Bromodomain-containing protein 2, BD2 (BRD2, Homo sapiens, UniProt P25440); binding, competition with immobilised ligand; 10 µM): 0.1%

CCCCCC(O)/C=C/C=O (centres unmarked)
isoTOP-ABPP competition ratio (Elongation factor 2, Cys41 (EEF2, Homo sapiens, UniProt P13639); competitive isoTOP-ABPP; proteome, soluble, MDA-MB-231; 100 µM, 60 min, with: iodoacetamide probe; reference: DMSO over compound-treated, higher = stronger cysteine blockade): 8.8

COC(=O)[C@@]1(C)C=C(C(=O)Nc2cccc(C(=O)Nc3ccc(Nc4nccc(-c5cccnc5)n4)c(C)c3)c2)C(=O)CC1
remaining activity (Mitogen-activated protein kinase 14 (MAPK14, Homo sapiens, UniProt Q16539); enzyme activity, inhibitor; 0.02032 µM, unit not given; reference: vehicle): 1.12 and 1.03 and 1.26

A few entries again:
CC1(Cc2ccccc2)C(=O)N(c2cccc(CN3CCN(Cc4ccc(Br)cc4)CC3)c2)C1=O.O=C(O)C(F)(F)F
selectivity ratio (Dipeptidyl peptidase 8 (Homo sapiens, UniProt Q6V1X1); inhibitor; with: GP-AMC substrate; reference: Ki' DPP9 over Ki' DPP8): 9

C=CC(=O)N1CCCC(n2c(=O)c3ncccc3n(Cc3ccc(Oc4ccccc4)cc3)c2=O)C1 (centres unmarked)
melting temperature shift (Elongin-C (Homo sapiens, UniProt Q15369); thermal proteome profiling, measured: ELOC; 10 µM, destabilized proteins, unit not given; reference: vehicle): -6.35
